Experimental data pooled from the literature.
Protocols differ between the studies behind these lines. Numbers after ± are the reported error.
PPO3: PPO3 (Agaricus bisporus, UniProt C7FF04)
Sequence of UniProt C7FF04 (whole entry, looked up): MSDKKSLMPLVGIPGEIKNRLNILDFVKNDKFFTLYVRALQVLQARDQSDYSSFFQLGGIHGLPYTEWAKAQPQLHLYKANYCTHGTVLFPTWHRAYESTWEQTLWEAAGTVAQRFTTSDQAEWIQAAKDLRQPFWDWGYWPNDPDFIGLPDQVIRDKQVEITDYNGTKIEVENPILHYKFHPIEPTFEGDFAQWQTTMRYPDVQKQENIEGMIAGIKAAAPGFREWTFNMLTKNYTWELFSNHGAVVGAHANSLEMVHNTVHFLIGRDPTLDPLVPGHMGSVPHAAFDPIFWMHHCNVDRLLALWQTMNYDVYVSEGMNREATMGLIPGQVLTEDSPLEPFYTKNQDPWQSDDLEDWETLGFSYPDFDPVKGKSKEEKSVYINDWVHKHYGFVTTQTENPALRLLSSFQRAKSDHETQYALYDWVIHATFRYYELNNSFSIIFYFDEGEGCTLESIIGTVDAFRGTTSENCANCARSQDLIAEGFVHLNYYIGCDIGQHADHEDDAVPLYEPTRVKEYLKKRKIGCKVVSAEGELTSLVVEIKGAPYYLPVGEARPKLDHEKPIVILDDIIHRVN
T1: dsDNA; GCGCCAATTGGCGC
T2: dsDNA, hairpin duplex; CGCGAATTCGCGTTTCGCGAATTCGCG
T3: DNA G4 pilE G-quadruplex (Neisseria gonorrhoeae); GGGTGGGTTGGGTGGG
Sequence of UniProt P08246 (whole entry, looked up): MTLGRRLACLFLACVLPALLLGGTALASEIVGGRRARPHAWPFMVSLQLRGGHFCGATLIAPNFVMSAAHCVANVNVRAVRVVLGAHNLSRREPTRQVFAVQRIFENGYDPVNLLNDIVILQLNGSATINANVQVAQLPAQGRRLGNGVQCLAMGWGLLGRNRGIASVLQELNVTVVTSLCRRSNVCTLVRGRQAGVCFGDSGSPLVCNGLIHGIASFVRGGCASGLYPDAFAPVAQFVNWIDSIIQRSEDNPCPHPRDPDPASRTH
Sequence of UniProt P61981 (whole entry, looked up): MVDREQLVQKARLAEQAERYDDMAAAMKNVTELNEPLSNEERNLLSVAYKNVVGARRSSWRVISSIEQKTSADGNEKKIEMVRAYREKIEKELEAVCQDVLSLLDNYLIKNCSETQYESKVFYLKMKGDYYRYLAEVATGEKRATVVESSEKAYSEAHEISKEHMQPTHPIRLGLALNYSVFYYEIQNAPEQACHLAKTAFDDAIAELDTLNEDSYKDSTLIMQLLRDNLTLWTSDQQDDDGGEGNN
Sequence of UniProt Q6UWW8 (whole entry, looked up): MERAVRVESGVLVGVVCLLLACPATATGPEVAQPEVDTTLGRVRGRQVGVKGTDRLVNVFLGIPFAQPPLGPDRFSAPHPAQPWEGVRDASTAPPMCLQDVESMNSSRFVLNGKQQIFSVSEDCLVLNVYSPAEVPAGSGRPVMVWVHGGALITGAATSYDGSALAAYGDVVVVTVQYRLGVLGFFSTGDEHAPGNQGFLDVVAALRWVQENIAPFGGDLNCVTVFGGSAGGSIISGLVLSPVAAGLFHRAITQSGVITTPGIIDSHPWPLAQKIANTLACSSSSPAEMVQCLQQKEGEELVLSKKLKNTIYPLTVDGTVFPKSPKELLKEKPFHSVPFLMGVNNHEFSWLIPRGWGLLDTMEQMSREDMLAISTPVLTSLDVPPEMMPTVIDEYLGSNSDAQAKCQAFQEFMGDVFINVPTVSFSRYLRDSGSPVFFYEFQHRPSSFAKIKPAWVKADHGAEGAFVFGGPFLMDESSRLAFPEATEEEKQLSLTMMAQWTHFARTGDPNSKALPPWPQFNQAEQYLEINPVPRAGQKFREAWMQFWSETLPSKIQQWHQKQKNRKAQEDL
Sequence of UniProt P32239 (whole entry, looked up): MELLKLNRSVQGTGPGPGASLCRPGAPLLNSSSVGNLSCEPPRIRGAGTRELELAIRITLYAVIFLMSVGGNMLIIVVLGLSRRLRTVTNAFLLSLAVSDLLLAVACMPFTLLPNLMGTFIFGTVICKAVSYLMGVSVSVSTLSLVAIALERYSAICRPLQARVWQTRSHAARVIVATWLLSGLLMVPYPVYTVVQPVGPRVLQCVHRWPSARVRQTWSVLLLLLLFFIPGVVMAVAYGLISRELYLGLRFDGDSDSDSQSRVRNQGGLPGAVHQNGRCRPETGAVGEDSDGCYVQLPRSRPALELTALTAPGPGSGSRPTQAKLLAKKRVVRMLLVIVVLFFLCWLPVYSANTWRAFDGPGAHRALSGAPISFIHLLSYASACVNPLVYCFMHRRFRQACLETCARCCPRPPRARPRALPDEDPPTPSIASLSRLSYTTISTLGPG
Sequence of UniProt P25787 (whole entry, looked up): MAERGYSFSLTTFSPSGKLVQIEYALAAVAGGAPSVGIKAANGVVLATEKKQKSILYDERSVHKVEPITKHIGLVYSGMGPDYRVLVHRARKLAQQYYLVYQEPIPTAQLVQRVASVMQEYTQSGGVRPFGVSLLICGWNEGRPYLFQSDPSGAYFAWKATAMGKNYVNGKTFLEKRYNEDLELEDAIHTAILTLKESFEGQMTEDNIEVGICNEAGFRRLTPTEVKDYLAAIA
Sequence of UniProt P60900 (whole entry, looked up): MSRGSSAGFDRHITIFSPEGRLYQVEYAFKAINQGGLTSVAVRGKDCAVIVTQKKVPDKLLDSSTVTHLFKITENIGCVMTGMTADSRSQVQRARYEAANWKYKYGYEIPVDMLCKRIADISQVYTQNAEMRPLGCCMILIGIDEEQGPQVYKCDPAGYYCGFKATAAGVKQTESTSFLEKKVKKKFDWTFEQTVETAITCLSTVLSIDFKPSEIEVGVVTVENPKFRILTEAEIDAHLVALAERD
Sequence of UniProt P39748 (whole entry, unmodified, looked up): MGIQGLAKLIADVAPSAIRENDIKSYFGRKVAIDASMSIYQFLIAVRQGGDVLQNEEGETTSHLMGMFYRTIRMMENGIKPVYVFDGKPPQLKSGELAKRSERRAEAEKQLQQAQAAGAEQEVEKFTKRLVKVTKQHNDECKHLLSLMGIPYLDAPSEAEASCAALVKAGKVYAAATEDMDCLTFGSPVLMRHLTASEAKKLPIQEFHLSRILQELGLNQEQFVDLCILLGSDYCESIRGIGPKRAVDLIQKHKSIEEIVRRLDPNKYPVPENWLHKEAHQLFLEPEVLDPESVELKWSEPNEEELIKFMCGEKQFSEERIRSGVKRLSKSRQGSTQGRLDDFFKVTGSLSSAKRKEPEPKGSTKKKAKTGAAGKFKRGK
Sequence of UniProt P55210 (whole entry, looked up): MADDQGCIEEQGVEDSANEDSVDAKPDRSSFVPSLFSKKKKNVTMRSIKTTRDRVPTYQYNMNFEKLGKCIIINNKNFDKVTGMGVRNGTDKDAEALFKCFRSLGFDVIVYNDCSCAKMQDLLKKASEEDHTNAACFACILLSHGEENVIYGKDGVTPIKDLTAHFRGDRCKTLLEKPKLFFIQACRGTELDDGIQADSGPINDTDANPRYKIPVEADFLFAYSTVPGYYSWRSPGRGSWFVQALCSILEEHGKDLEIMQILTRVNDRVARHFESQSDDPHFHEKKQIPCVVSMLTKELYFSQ
Sequence of UniProt Q9UH17 (whole entry, looked up): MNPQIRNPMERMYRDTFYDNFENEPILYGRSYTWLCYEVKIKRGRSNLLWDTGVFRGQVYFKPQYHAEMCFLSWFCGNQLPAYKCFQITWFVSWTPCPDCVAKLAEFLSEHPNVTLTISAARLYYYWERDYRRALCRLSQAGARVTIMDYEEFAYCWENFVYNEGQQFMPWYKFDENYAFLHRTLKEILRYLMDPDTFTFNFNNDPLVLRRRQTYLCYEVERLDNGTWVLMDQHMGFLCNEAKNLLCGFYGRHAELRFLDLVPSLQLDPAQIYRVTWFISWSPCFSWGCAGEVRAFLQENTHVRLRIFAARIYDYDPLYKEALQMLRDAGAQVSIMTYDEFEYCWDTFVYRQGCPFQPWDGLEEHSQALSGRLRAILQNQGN
Sequence of UniProt P34972 (whole entry, looked up): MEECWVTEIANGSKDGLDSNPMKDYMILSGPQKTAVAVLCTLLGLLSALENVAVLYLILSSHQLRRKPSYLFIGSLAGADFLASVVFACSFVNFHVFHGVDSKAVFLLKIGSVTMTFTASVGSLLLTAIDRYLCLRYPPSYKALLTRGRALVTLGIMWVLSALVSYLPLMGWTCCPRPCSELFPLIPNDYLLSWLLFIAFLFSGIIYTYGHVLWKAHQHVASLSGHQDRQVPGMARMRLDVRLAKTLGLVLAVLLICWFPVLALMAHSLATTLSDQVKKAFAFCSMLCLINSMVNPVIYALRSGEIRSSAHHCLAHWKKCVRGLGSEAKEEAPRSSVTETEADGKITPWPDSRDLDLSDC
Sequence of UniProt Q8HZR1 (whole entry, looked up): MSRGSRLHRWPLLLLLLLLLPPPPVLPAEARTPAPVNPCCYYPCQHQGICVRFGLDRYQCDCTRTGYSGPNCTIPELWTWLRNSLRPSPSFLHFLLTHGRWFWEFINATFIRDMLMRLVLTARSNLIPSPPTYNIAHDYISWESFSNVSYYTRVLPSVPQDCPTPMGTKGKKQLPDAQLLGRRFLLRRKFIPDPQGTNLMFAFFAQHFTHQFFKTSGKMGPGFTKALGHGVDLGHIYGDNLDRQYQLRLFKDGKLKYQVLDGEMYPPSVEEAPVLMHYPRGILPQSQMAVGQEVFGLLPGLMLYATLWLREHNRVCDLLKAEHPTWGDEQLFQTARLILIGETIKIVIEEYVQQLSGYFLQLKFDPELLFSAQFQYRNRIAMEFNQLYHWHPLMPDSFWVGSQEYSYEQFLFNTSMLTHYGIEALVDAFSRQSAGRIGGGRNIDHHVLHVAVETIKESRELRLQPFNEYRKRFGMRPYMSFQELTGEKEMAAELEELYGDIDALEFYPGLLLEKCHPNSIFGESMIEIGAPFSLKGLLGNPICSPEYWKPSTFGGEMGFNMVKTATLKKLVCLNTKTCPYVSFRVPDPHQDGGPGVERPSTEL
Sequence of UniProt P51452 (whole entry, looked up): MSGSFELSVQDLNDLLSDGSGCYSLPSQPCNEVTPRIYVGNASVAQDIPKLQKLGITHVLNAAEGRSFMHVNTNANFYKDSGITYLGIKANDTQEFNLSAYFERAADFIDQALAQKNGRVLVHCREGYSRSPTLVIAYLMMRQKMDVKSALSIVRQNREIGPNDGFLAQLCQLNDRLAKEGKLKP

SMILES	target or system	assay	test system	setting	scale	endpoint	value
O=C(Nc1ccc(C(=O)Nc2ccc(C(=O)Nc3ccc(S(=O)(=O)O)c4cc(S(=O)(=O)O)cc(S(=O)(=O)O)c34)cc2)cc1)Nc1ccc(C(=O)Nc2ccc(C(=O)Nc3ccc(S(=O)(=O)O)c4cc(S(=O)(=O)O)cc(S(=O)(=O)O)c34)cc2)cc1	Neutrophil elastase (ELANE, Homo sapiens, UniProt P08246)	substrate S-1384 hydrolysis		pH 7.4, 37 °C, enzyme 100 nM		Km	249 ± 38.6 µM
CC(C)C[C@H](NC(=O)[C@H](CC(N)=O)NC(=O)[C@H](CCC(=O)O)NC(=O)[C@@H](N)CS)C(=O)O	PPO3	enzyme activity, inhibitor		50 µM		remaining activity	81.2%
NS(=O)(=O)c1ccc(N2N=C(C(F)(F)F)CC2c2ccc(F)cc2F)cc1 (stereo not drawn)	Prostaglandin G/H synthase 1 (Canis lupus familiaris, UniProt Q8HZR1)	TXB2 formation, inhibitor	dog whole blood	clotting		Hill coefficient	1.7
C[n+]1c(C=Cc2ccc(O)c(C=Cc3sc4ccccc4[n+]3C)c2)sc2ccccc21	T1, dsDNA	fluorescence enhancement				binding	binds weakly
CC(C)C[C@H](NC(=O)[C@H](CCC(=O)O)NC(=O)[C@@H](N)CS)C(=O)N[C@@H](CC(N)=O)C(=O)O	PPO3	enzyme activity, inhibitor		50 µM		remaining activity	81.5%
Cc1nnc(Nc2ccc(O)cc2)[nH]c1=O	DNA dC->dU-editing enzyme APOBEC-3B, C-terminal domain (Homo sapiens, UniProt Q9UH17)	binding, 1H CPMG NMR		20 µM protein		signal attenuation	28 ± 4%
CC[C@H](C)[C@@H]1NC(=O)[C@H](CCSC)NC(=O)CCCC(=O)NCCCC[C@@H](C(N)=O)NC(=O)[C@H]([C@@H](C)O)NC(=O)CNC(=O)[C@H](C)NC(=O)[C@H](C(C)C)NC(=O)[C@H](Cc2ccccc2)NC(=O)[C@H](CCC(=O)O)NC(=O)[C@H](Cc2ccc(O)cc2)NC(=O)[C@H](Cc2c[nH]c3ccccc23)NC(=O)[C@H]([C@@H](C)O)NC1=O	Chymotrypsinogen A (Bos taurus, UniProt P00766)	substrate		concentration not given	reference: compound over variant	kcat/Km reduction	1 fold
NCCCC[C@H](NC(=O)[C@H](C/C=C\C[C@H](NC(=O)[C@@H]1CCCN1)C(=O)N[C@@H](CCCCN)C(=O)NCCCN)NC(=O)[C@@H]1CCCN1)C(=O)NCCCN	(CAG)10 RNA	SPR				residence time	36 s
O=c1c2ccccc2n(CC2CC2)c(=O)n1O	Flap endonuclease 1 (Homo sapiens, UniProt P39748)	inhibitor		added: double-flap substrate DF1		kcat	3.03 ± 0.217 s⁻¹
CC(=O)N[C@@H](CC(=O)O)C(=O)N[C@@H](CCC(=O)O)C(=O)N[C@H](C(=O)N[C@@H](CC(=O)O)C(=O)Nc1ccc2c(C)cc(=O)oc2c1)C(C)C	Caspase-7 (CASP7, Homo sapiens, UniProt P55210)	substrate cleavage, substrate, fluorogenic AMC release		enzyme 0.25 activity units/µL		Vmax	1270 ± 38.8 RFU/min
CCOC(=O)[C@](CC)(CCCSCCOCCOCCNC(=O)c1ccc(C(=O)[O-])c(C2=C3C=CC(=[N+](C)C)C=C3[Si](C)(C)c3cc(N(C)C)ccc32)c1)NC(=O)c1ccc(C2CC2)c(Cc2ccc(F)cc2)n1	CNR2 (Homo sapiens, UniProt P34972)	cAMP, agonist				Emax	96%
CCCCCC(=O)Nc1ccc(OC)nc1C	Carboxylesterase 3 (CES3, Homo sapiens, UniProt Q6UWW8)	substrate		50 µM, pH 8, 37 °C, enzyme purity 3%		specific activity	2.3 pmol/min/µg
CC(C)CN(CC(C)C)C(=O)/C=C/C=C/c1ccc2c(c1)OCO2	Gabra3/Gabrb2 (Rattus norvegicus, UniProt P20236+P63138)	GABA current potentiation, positive modulator, two-electrode voltage clamp	Xenopus oocytes expressing α3β2	added: GABA EC3-7		Hill coefficient	0.9 ± 0.2
CN[C@@H](C)C(=O)N[C@H]1CN(C(=O)Cc2ccccc2)CC[C@H]2CC[C@@H](C(=O)NCc3ccccc3Cl)N2C1=O	Baculoviral IAP repeat-containing protein 2, BIR3 domain (BIRC2, Homo sapiens, UniProt Q13490)	fluorescence polarization			reference: Ki XIAP over Ki cIAP1	selectivity ratio	70
COc1cncc(-c2cc(F)cc(CNC(=O)c3cc(N4CC[C@@](C#N)(C5CC5)C4=O)cc(C)n3)c2)c1	Proline--tRNA ligase (Plasmodium falciparum, UniProt Q8I5R7)	thermal shift		no substrate		melting temperature	71.1 °C
COc1cc(CNC(=O)C[C@H](C)CCC=C(C)C)ccc1OCc1cn(-c2cccc(C(F)(F)F)c2)nn1	SR leukaemia cells	SRB		10 µM, 48 h		growth percent	41.5%
Nc1ncnc2c1ncn2[C@@H]1O[C@H](CO)[C@@H](O[C@H]2O[C@H](CO)[C@@H](OP(=O)(O)O)[C@H](OP(=O)(O)O)[C@H]2O)[C@H]1O	Itpr1 (Rattus norvegicus, UniProt P29994, del318-332/R568Q)	Ca2+ release	DT40, permeabilized	unit not given	reference: R568Q over wild type	ΔpEC50	0.21 ± 0.11
O=C(Cn1ccc2ccc(Cl)cc21)N(c1ccc(F)cc1)c1ccc(F)cc1	Proteasome subunit alpha type-2/Proteasome subunit alpha type-6, 20S proteasome (Homo sapiens, UniProt P25787+P60900)	proteolysis, activator, fluorogenic peptide	purified 20S proteasome	up to 30 µM, added: Suc-LLVY-AMC, Z-LLE-AMC, Boc-LRR-AMC	reference: vehicle	maximum fold increase	4 ± 1.4
Cc1ccc(-c2nc3n(ccc4nc(-c5ccc(C)cc5)c(C=NNC(=N)N)n43)c2C=NNC(=N)N)cc1	T2, dsDNA, hairpin duplex	CD melting		DNA 15 µM, KCl 20 mM		melting temperature shift	4.1 °C
O=C(Cc1ccccc1Nc1c(Cl)cccc1Cl)O[C@@H]1O[C@H](C(=O)O)[C@@H](O)[C@H](O)[C@H]1O	ABCC4 (Homo sapiens, UniProt O15439)	LTC4 transport, inhibitor	inside-out membrane vesicles	added: LTC4		IC50	> 300000 nM
CCC(C(=O)O)N1CCc2cccc(F)c2C1 (stereo not drawn)	DUSP3 (Homo sapiens, UniProt P51452)	ligand-observed 19F NMR		concentration not given, added: DUSP3 4 or 8 µM		binding	active
COc1cc(CNC(=O)C[C@H](C)CCC=C(C)C)ccc1OCc1cn(-c2ccccc2)nn1	SW-620	SRB		10 µM, 48 h		growth percent	98.7%
O=Cc1ccc(-n2ccnc2)c(Cl)c1	14-3-3 protein gamma, with Pin1 peptide (YWHAG, Homo sapiens, UniProt P61981)	fluorescence anisotropy		100 µM	reference: DMSO	stabilization factor	1.3 fold
COc1cccnc1-c1nc2cc(OC(F)(F)F)ccc2[nH]1	Core-binding factor subunit beta, with RUNX1 (Homo sapiens, UniProt Q13951)	co-immunoprecipitation, inhibitor	SEM	10 µM, 6 h		RUNX1 binding	decreased
CCCC[C@H](NC(=O)CNC(=O)[C@@H]1CCCN1C(=O)CNC(=O)[C@@H]1CCCN1C(=O)CNC(=O)[C@@H]1CCCN1C(=O)CNC(=O)[C@@H]1CCCN1C(=O)CNC(=O)[C@@H]1CCCN1C(=O)CNC(=O)[C@@H]1CCCN1C(=O)CNC(=O)[C@@H]1CCCN1C(=O)CNC(=O)[C@@H]1CCCN1C(=O)CNC(=O)[C@@H]1CCCN1C(=O)CNC(=O)[C@@H]1CCCN1C(=O)CNC(=O)[C@@H]1CCCN1C(=O)CNC(=O)[C@@H]1CCCN1C(=O)[C@H](Cc1c[nH]c2ccccc12)NC(=O)[C@H](CCCNC(=N)N)NC(=O)[C@@H](Cc1ccccc1)NC(=O)[C@H](Cc1c[nH]cn1)NC(=O)[C@H](CCC(=O)O)NC(=O)[C@H](CCCC)NC(=O)[C@H](CO)NC(C)=O)C(=O)NCC(=O)N[C@@H](Cc1c[nH]c2ccccc12)C(=O)N[C@@H](CCCC)C(=O)N[C@@H](CC(=O)O)C(=O)N[C@@H](Cc1ccccc1)C(N)=O	CCKBR/MC4R (Homo sapiens, UniProt P32239+P32245)	bivalent binding	cells expressing CCK2R and MC4R	added: Eu-DTPA-CCK-8	reference: single- over dual-expressing cells	IC50 ratio	7 fold
Nc1ncnc2c1ncn2C1OC(COP(=O)(O)OP(=O)(O)OCC2OC(O)C(O)C2O)C(O)C1O (stereo not drawn)	TRPM2 (Nematostella vectensis, UniProt A7T1N0, R329A)	channel activation, agonist, inside-out patch clamp		R329A, 2.5 µM PIP2, added: 125 µM Ca2+	reference: wild type	EC50 fold increase	> 1000 fold
CCN(CC)c1ccc2cc(/C=C3\N=C(C)N(C)C3=O)c(=O)oc2c1	T3, DNA G4 pilE G-quadruplex (Neisseria gonorrhoeae)	fluorescence titration		pH 7.4, K+ 100 mM		Kd	1370 nM

Excerpt of the above:
SMILES	target or system	assay	test system	setting	scale	endpoint	value
O=c1c2ccccc2n(CC2CC2)c(=O)n1O	Flap endonuclease 1 (Homo sapiens, UniProt P39748)	inhibitor		added: double-flap substrate DF1		kcat	3.03 ± 0.217 s⁻¹
O=Cc1ccc(-n2ccnc2)c(Cl)c1	14-3-3 protein gamma, with Pin1 peptide (YWHAG, Homo sapiens, UniProt P61981)	fluorescence anisotropy		100 µM	reference: DMSO	stabilization factor	1.3 fold
NCCCC[C@H](NC(=O)[C@H](C/C=C\C[C@H](NC(=O)[C@@H]1CCCN1)C(=O)N[C@@H](CCCCN)C(=O)NCCCN)NC(=O)[C@@H]1CCCN1)C(=O)NCCCN	(CAG)10 RNA	SPR				residence time	36 s
CC(C)C[C@H](NC(=O)[C@H](CCC(=O)O)NC(=O)[C@@H](N)CS)C(=O)N[C@@H](CC(N)=O)C(=O)O	PPO3	enzyme activity, inhibitor		50 µM		remaining activity	81.5%
